Results gathered from unrelated publications.
Numbered parts are unrelated; each lists some results of a single study.
UniProt Q16288, sequence (whole entry, looked up): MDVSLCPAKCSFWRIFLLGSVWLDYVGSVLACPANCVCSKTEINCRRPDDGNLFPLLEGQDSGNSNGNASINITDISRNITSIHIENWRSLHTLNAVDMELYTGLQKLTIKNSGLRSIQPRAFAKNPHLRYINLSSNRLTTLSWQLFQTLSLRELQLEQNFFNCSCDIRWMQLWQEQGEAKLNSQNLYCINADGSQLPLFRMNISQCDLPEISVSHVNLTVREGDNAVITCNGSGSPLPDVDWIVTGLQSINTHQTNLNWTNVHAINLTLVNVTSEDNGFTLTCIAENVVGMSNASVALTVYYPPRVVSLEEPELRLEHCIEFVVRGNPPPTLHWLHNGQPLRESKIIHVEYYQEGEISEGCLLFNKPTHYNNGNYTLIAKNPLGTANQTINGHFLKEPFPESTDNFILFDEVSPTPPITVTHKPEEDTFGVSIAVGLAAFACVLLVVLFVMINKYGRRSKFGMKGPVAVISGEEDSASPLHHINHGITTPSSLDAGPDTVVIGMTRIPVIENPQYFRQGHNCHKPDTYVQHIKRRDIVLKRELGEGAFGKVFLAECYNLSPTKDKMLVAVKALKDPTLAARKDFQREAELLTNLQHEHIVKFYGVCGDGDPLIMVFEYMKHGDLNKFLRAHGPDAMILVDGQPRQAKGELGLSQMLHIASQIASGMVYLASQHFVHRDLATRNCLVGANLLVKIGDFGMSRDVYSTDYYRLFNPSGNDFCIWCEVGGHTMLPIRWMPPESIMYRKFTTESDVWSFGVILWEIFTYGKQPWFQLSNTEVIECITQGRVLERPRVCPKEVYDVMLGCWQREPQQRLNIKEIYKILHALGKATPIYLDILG
UniProt Q9Y616, sequence (whole entry, looked up): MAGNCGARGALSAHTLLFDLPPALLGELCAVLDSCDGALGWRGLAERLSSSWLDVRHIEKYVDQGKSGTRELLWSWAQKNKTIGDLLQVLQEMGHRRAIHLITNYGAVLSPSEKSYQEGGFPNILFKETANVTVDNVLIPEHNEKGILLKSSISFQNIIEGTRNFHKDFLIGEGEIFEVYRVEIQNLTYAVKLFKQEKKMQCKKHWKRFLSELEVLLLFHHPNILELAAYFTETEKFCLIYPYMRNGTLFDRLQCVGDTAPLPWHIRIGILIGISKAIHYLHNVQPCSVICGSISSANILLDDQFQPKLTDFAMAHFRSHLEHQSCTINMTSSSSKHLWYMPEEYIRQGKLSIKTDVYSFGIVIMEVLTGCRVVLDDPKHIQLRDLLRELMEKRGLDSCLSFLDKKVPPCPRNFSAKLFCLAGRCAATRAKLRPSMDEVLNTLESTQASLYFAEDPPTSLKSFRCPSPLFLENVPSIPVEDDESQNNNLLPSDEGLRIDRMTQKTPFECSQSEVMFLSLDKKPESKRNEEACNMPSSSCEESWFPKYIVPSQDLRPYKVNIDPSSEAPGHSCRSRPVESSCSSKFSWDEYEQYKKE
UniProt P52564, sequence (whole entry, looked up): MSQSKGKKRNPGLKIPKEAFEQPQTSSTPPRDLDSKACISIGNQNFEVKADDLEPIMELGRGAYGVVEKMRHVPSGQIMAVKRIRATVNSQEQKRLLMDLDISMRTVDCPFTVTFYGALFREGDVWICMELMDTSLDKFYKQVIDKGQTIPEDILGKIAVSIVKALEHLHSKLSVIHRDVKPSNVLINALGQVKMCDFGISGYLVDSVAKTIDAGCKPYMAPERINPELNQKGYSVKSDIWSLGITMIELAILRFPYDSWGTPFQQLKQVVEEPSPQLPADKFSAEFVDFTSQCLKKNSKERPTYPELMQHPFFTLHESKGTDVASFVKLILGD
UniProt Q15418, sequence (whole entry, looked up): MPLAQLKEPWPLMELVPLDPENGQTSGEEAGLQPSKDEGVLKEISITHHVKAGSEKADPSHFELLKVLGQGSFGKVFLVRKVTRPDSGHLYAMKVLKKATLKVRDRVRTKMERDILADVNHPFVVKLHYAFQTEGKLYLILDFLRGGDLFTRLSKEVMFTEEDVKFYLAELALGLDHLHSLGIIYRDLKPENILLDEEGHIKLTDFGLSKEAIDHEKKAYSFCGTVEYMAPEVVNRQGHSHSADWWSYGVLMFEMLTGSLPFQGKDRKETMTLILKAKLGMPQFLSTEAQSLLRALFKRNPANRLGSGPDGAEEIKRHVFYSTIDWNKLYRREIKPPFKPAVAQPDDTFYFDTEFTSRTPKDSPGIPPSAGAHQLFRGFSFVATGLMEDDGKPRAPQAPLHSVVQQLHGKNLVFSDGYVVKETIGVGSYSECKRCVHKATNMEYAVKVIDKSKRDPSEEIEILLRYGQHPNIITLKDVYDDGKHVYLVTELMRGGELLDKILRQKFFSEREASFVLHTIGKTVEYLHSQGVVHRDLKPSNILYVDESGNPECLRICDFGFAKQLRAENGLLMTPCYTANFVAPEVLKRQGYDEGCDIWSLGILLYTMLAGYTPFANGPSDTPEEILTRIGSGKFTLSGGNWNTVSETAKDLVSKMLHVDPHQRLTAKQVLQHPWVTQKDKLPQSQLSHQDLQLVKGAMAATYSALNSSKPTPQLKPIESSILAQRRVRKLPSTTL
UniProt Q13705, sequence (whole entry, looked up): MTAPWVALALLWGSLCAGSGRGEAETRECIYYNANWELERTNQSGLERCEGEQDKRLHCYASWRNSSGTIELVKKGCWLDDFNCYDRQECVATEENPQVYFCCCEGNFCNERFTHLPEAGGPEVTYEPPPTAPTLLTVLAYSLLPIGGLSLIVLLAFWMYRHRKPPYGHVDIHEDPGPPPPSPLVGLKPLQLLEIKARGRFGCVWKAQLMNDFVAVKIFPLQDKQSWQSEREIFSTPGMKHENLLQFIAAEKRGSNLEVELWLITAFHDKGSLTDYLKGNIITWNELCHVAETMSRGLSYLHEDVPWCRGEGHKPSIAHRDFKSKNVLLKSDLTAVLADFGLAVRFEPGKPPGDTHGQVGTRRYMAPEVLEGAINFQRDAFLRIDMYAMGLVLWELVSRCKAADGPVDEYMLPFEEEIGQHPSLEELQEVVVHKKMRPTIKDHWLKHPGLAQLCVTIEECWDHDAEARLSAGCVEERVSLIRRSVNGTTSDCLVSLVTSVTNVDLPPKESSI
UniProt Q9Y2H1, sequence (whole entry, looked up): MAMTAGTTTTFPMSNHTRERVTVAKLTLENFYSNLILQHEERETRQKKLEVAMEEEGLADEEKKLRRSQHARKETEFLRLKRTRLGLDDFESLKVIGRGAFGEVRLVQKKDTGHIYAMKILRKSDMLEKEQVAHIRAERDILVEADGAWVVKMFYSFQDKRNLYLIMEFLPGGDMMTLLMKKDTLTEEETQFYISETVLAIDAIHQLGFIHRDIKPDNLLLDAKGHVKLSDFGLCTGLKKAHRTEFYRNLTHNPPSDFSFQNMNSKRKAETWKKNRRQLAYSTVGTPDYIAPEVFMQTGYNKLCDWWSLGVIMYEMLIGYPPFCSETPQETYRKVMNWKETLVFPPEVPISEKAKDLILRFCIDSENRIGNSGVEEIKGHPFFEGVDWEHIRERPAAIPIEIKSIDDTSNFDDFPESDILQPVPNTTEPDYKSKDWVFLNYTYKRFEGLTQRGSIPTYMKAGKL
UniProt P11802, sequence (whole entry, looked up): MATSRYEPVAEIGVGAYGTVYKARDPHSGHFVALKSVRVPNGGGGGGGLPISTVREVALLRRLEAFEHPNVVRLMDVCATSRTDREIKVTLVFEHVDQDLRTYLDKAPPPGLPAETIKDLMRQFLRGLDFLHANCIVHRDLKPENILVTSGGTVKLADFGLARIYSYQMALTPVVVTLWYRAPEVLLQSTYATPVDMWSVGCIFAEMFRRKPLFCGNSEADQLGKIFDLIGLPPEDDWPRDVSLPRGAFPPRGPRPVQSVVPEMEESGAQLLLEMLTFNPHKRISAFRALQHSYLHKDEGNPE

Set 1
SMILES: C=CC(=O)N1CCC[C@@H](n2nc(-c3ccc(Oc4ccccc4)cc3)c3c(N)ncnc32)C1
Action: inhibitor
Concentration: 1 µM
| target | read-out | inhibition |
| --- | --- | --- |
| ACVR2B (Homo sapiens, UniProt Q13705) | enzyme activity | 0% |
| NTRK3 (Homo sapiens, UniProt Q16288) | enzyme activity | 17% |
| DDR1 (Homo sapiens, UniProt Q08345) | – | 26% |
| Ribosomal protein S6 kinase alpha-1, kinase domain 2 (RPS6KA1, Homo sapiens, UniProt Q15418) | – | 15% |
| CAMK2A (Homo sapiens, UniProt Q9UQM7) | enzyme activity | 4% |

Set 2
Cell line: A-375
Concentration: 100 µM
Time: 36 h
| Structure (SMILES) | viability |
| --- | --- |
| CC(=O)Oc1cc(C(C)C)c(OCCN(C)C)cc1C | 109% |
| CC(C)Cc1ccc(C(C)C(=O)O)cc1 (stereo not shown) | 98.4% |
| CCN1CCN(c2cc3c(cc2F)c(=O)c(C(=O)O)cn3C2CC2)CC1 | 97.9% |
| NCc1ccc(S(N)(=O)=O)cc1 | 135% |
| CC(C)c1ccc2oc3nc(N)c(C(=O)O)cc3c(=O)c2c1 | 93.2% |
| Cc1ccnc2c1NC(=O)c1cccnc1N2C1CC1 | 115% |
| Oc1ccc(O)cc1 | 107% |
| O=C1CCc2cc(OCCCCc3nnnn3C3CCCCC3)ccc2N1 | 75.8% |
| CC1(C)[C@H]2CC[C@]1(C)C(=O)C2 | 113% |

Set 3
SMILES: O=C(NS(=O)(=O)c1ccc(NCC2CCOCC2)c([N+](=O)[O-])c1)c1ccc(N2CCN(Cc3ccc(C(F)(F)F)cc3-c3ccc(Cl)cc3)CC2)cc1Oc1cnc2[nH]ccc2c1
Read-out: cell-free assay
Technique: competition with immobilised ligand
Concentration: 1 µM
| target | remaining binding [%] |
| --- | --- |
| FLT3 (Homo sapiens, UniProt P36888, D835V) | 100 |
| IRAK3 (Homo sapiens, UniProt Q9Y616) | 100 |
| MAP2K6 (Homo sapiens, UniProt P52564) | 97 |
| STK38L (Homo sapiens, UniProt Q9Y2H1) | 93 |
| TEC (Homo sapiens, UniProt P42680) | 71 |
| Cyclin-dependent kinase 4, with cyclin D3 (CDK4, Homo sapiens, UniProt P11802) | 100 |

Set 4
Target: Homeodomain-interacting protein kinase 3 (HIPK3, Homo sapiens, UniProt Q9H422)
UniProt Q9H422, sequence (whole entry, looked up): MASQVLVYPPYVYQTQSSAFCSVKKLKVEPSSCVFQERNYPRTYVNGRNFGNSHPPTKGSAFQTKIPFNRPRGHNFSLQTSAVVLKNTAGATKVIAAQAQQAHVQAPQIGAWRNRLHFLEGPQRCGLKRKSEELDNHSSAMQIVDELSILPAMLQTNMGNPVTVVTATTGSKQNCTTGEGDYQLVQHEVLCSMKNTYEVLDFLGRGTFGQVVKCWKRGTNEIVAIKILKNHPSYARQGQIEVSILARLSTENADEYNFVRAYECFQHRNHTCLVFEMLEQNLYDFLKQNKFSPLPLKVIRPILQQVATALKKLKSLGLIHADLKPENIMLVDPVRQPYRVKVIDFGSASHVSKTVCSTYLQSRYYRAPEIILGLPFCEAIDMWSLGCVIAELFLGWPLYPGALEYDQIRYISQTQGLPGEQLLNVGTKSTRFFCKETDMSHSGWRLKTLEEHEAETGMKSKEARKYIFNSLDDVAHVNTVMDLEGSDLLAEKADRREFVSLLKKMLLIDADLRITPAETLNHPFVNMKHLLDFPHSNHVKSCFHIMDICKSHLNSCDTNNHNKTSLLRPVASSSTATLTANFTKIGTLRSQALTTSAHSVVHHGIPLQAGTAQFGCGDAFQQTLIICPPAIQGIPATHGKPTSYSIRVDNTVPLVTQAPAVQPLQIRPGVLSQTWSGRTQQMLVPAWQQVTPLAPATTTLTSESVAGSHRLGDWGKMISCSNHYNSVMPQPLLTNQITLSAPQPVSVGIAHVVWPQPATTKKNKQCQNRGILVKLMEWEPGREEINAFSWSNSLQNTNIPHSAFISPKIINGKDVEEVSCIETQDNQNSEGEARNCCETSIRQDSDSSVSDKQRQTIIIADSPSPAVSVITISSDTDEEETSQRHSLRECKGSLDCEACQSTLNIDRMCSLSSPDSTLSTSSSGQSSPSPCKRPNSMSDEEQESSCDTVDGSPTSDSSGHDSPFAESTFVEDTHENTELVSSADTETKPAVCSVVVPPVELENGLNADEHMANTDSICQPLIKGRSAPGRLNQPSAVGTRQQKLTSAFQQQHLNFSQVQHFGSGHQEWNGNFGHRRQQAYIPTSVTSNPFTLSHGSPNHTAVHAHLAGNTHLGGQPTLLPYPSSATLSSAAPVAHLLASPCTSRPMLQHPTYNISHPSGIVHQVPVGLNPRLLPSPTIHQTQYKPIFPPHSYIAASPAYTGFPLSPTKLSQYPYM
Read-out: enzyme activity
Action: inhibitor
Concentration: 0.5 µM
Baseline: control
| SMILES | remaining activity [%] |
| --- | --- |
| COc1cc2nccc(Oc3ccc(NC(=S)NC(=O)c4ccccc4C)cc3)c2cc1OC | 95.2 |
| O=C(Nc1cccc(Nc2cc(Nc3cccc(C(F)(F)F)c3)ncn2)c1)C1CC1 | 97 |
| O=C1NC(=O)C(c2cn(CCCO)c3ncccc23)=C1c1cnccn1 | 89.2 |
| COc1cc2ncnc(Nc3ccc(Oc4ccccc4)cc3)c2cc1OC | 103 |
| Nc1ccc2ncnc(NCCc3ccc(Oc4ccccc4)cc3)c2c1 | 98.6 |
| CN(C)c1ccc(C=C2C(=O)Nc3ccccc32)cc1 | 94.4 |
| NCCNc1ncc(C(N)=O)c(Nc2cccc(C(F)(F)F)c2)n1 | 102 |
| Cc1ccc(Nc2nccc(N(C)c3ccc4c(C)n(C)nc4c3)n2)cc1S(N)(=O)=O | 103 |
| O=c1c2ccccc2[nH]c(=S)n1CCN1CCC(=C(c2ccc(F)cc2)c2ccc(F)cc2)CC1 | 97.7 |
| CC(C)[C@H](CO)Nc1nc(Nc2cc(N)cc(Cl)c2)c2ncn(C(C)C)c2n1 | 99.4 |
| COc1ccc(OC)c2c(=S)c3ccccc3[nH]c12 | 101 |
| O=S(=O)(c1cccc2cnccc12)N1CCCNCC1 | 107 |
| Nc1ncnc2n[nH]c(Nc3ccc(F)cc3)c12 | 100 |
| Cc1nc(-c2ccccc2)c(-c2ccncc2)o1 | 107 |

For quick reference, copied from above (set 1):
| target | read-out | inhibition |
| --- | --- | --- |
| ACVR2B (Homo sapiens, UniProt Q13705) | enzyme activity | 0% |
| NTRK3 (Homo sapiens, UniProt Q16288) | enzyme activity | 17% |
| DDR1 (Homo sapiens, UniProt Q08345) | – | 26% |
